# Experimental data from different studies.
# Numbered parts are unrelated; each lists some results of a single study.

# Study 1
# Target: Centromere-binding protein 1, full length, His-tagged (CBF1, Saccharomyces cerevisiae, UniProt P17106, residues 1-351)
# Sequence of UniProt P17106 (whole entry, looked up): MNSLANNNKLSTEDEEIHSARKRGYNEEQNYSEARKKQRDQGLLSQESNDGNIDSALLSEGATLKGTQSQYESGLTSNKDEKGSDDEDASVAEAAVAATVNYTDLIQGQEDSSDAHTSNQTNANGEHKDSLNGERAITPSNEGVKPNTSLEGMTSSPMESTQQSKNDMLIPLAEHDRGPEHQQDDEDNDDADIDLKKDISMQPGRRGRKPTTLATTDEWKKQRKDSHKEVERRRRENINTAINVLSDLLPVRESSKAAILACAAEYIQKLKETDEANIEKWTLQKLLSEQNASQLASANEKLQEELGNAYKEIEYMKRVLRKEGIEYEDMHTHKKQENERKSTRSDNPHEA
# Technique: competition protein-binding microarray
# Molecule type: double-stranded DNA, one strand shown
# Medium: in vitro
# Concentration: 2 µM
# Setting: whole 60-bp probe, lowest competitor level
# Together with: Pho4 competitor, 0.05 µM
# Direction: higher = stronger binding
# All sequences stand within: … GTCTTGATTCGCTTGACGCTGCTG
Oligonucleotide,fluorescence intensity [a.u.]
CATACCCAACCTTGTGAAGTGGGTGAAGATATTTGT,74.9
AACTATGCTATAAAAAACGTGACTCGGGTTCTCAGT,1590
TGGGGCCCGCCGTCCAACGTGCGGATACCGTACCCT,46.1
TTCCCAGTGAAATTTCACGTGATGGAATCTGATGAA,2250
AAATTACTAAGTTGAACGGTGGGTGACGCCGTATGA,56.1
CTGTCGTCGTAGGTTCTCGTGGTGATGACCTTACTA,89.4
CTAACGAAGGTTTGTAACGTGGGTGACAAGCCAAGT,89
ATATGTGTCCGTAACCTCGTAGTTAGTGGCTGATTT,76.6
AGTTTCTTGAAGATCTGCATGACAAATAATGTTTGC,131
TTTCATCACTATTTGCACGCTCTTTCCAAAGCTCCT,80.8
TTTAAAAGGAGCCATCACGTTCTGCAGCACTTGAAT,185
GTCTTGTCTCATTGTTTGGTGGGTGTCCCCACTTCA,85.4
AGTACCACCTCTTTGAACGTGACAAAAGGTAGTAAT,242
TGAAAAATCTGAGACAACGTGCCAGTTTGTAAGTGC,190
CATACCCAACCTTTTCACGTGCGTTAAGATATTTGT,963
TATTATAATACTCAACACGTGACTCGAGCCTTCCCA,10700
GTCAAGCTGAAATCTCACGTGGGTACAGACGGGGAA,829
CCGACCTTAGAATTTCACGTGTAGGTACACTCAAAA,648
CGGGGTTAAGTTTTTCACGTGCAGTGCTTGCAGCAG,563

# Study 2
# Target: RING finger protein unkempt homolog, zinc fingers 1-6, GST-SBP tag (UNK, Homo sapiens, UniProt Q9C0B0, residues 30-357)
# Technique: RNA Bind-n-Seq
# Molecule type: RNA
# Medium: in vitro
# Concentration: not given
# Setting: RNA with constant flanks, human and mouse sites, ends assumed
# Relative to: input RNA pool
# Direction: higher = stronger binding
# All sequences stand within: GGGAGUUCUACAGUCCGACGAUC … CAACAGAGGAUUGAGCAUCA
# Target sequence (chain): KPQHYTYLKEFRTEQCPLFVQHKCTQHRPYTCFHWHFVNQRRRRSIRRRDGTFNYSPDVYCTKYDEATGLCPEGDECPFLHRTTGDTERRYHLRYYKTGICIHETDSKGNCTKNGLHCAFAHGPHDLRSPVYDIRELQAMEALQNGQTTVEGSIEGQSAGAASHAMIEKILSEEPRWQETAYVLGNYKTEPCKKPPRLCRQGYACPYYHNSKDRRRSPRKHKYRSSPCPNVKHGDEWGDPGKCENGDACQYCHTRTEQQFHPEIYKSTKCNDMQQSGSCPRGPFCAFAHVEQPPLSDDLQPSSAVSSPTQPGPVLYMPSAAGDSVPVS
Oligonucleotide,bound/input enrichment [ratio]
AAUUUUGUGAUUUUAAUUCUGAUAAUGAAAUCUUAGCUAUUCUGUACGCAUUGUUGAAGAAAUAAUGUUUUUCAAAGUAGGCAGUUAGGUGUAGUUGGGUGAACAUUGAGAAAGGUAGCC,1
GAACUGCUACAACUAACAAACAUUUGUUUCCAAGCCUGUCAUUAAGAGUCUGCAUCAAGAGAUUUGUCCUCCUUGGGGGACCACUGGAUCAUUCCAGAUUUCUUGUGAUUUUUCUAUUGU,0.0822
GUGACUAACAUCCUUAUGCUGAAAGGAAAAAACCAGGCAUUUUUGGAACUGGCAACAGAGGAAGCAGCUAUUACUAUGGUUAAUUACUAUUCUGCUGUGACACCUCAUCUUCGUAACCAA,0.188
CCAUUUGACCCAUUGACCCUGCCAGAGAAGCCCCUGGCUGGAGACCUUCCAGUAGACAUGGAAUUUGGAGAGGAUCUGCUGGAAUCUCAGACUGCCCCAAGUCGAGGAUGGGCUCCCCCA,0.159
CUUGUCUACCAUAUUGGCCUCACCCCAGCCAAACUUCCUGACCUUGUGGAAAACAACCCUUUAGUCGCUAUAGAAAUGUUGCUGAAAUUAAUGCAGUCAAGCCAGAUCACUGAGUAUUUC,2.21
UGUCUCAGGAUGGCAGCACACAGCUCAGAUUCAUGUCUUGAGCCAAACAAGUGAAUGUAUCUGAGAAGACUCAGUACCACAUGGUACUGGGAGAUCUUACUCACUUCAGCUGGCGUUGCU,0.199
ACUAACAGGCCAUUUAUUUCUCAGAAAAUCCAUUUUCCUGAUUUUUCUACCAGAGACAUACAUAGGAAUUAUGUUGAUUGUGUGCGAUGGUUAGGCGAUUUGAUACUUUCUAAGAGUGGC,0.251
GACAAAGAGGUCCUCACAGAGGACAAGUGCCUCCAGCGCCAGAACCGUUAUGACGGGCAAGUGGCUGUGUUUGGCUCAGACCUGCAAGAGAAGCUGGGCAAGCAGAAGUAUUUCCUGGUG,0.0761
GAGGACCCAAGGUUGAUUCUCAUCACUUUUUUAAAUACUCCGAUUGCGGCCAAUCUGCCAAUAGGAUUCUUAGAGCUCACCCCGCUCGUUGGAUUGAUCCGCUGGUGCGUGAAGGCACCC,0.435
CUCCAGACACAAGUAGCUGAAAUGUCCCGAGUGAUACGUGAUCUGCAGUCCAGGAGCUGUUUUAGAUUUCAUCAUUCUAGGCCAAGUGAGAACUCCUCAGUUCCUUGGGACAUCUCCACC,0.348
UAUGAUCAAGUUCUCGUGGAGUCAGACAAUGAGAACCGAAUGGAGGAAAGCAAGGCUCUCUUUAGAACAAUUAUCACAUACCCCUGGUUCCAGAACUCCUCGGUUAUUCUGUUCUUAAAC,2.11

# Study 3
# Target: Histone acetyltransferase KAT6A, winged helix 2, GST fusion (KAT6A, Homo sapiens, UniProt Q92794, residues 85-181)
# Technique: protein binding microarray
# Molecule type: double-stranded DNA, one strand shown
# Medium: in vitro
# Concentration: not given
# Setting: 8-mer, flanks averaged, mean of 2 arrays, mostly near background
# Relative to: not given
# Direction: higher = stronger binding
# Construct (chain): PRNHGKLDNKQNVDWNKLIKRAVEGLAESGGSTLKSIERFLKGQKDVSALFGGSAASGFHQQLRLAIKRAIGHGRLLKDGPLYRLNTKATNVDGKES
Oligonucleotide,E-score
CGGCACTA,0.0263
CAGGCCTG,-0.0877
ACGTTCCG,-0.268
ATCCAGTC,-0.0986
AGCCGATC,0.149
AACCTTCC,-0.148
CACGCTAC,-0.0701
CATGGCTA,-0.108
CAGTTTCA,-0.0512
ACCTACTA,-0.186
AAACGTTA,-0.129
CATGTAGG,-0.111
AGGCCTAT,-0.1
ATCGTCTC,-0.262
ATTAGATA,-0.0534
TGCCACAA,0.139
ATGGTTCC,0.0547
CGACGTAG,-0.16
TATTCGAA,0.0168

# Study 4
# Target: RNA binding protein fox-1 homolog 2, RRM domain, GST-SBP tag (RBFOX2, Homo sapiens, UniProt O43251-10, residues 100-194)
# Technique: RNA Bind-n-Seq
# Molecule type: RNA
# Medium: in vitro
# Concentration: 365 nM
# Setting: natural RNA segment, single round, ends assumed
# Relative to: no-protein control
# Direction: higher = stronger binding
# All sequences stand within: GGGAGUUCUACAGUCCGACGAUC … UGGAAUUCUCGGGUGCCAA
# Target sequence (chain): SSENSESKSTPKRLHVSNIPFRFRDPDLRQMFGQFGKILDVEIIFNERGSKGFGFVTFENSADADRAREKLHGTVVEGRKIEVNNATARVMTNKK
Oligonucleotide,RBNS enrichment (R)
UGGCAAAGAUACCAAGUCAUACCUACUCAACAGAUGGCAUGGGACAUAUGAAGAAAUGGAGACAUUAACUUCGUUCUAAAGCCUGAUUGUAGAUUGCUCCUUAAAACUGA,1.12
GUUUGUUUCUACAUACCUAUGACCACAGCUCUGGAAAAAUAGCAAAUGAAGAAAUGAAUUGCCAAAACCACUGAGGCCUCCUCUCAAAACAAAACAUAUAAAAGUAACAG,0.569
AAAUAUGGCCCCCAGCUAUUUUUGUAAAUAAAGGUUUAUUGGGAACACAGCCACACCCAAUCCUUCAGGUCUAUGGCUGCUUCUGCCCUACAGUGAUUGAGUUGCAUAGU,0.482
AAACAAGAAUGGCAAGCCUAAGUUUGUGAGGCAUCAUCACAAUUCUGUCAAAAUAAUGUUAUGCUUUUGAAAGAUAAAGCCUGCUCAAUCUAGGGAUCCAGUUGUGCAGU,3.7
GUAUGAUGCUUGCUUUAUGCCAUAGCCAUCUAUAUUGUAAUUUAUCUAUACAAUUAAACAAAUUUAAUGAACCCUAUGAAUUAUUCUUUGAUGUGUUUGUUUUUGUAAGA,2.65
UCCCCUCCCAGGGGAGCCAGCUGCUUGACCUAGCUCUUUGGGCCUCUCCUGCCCUCUGCUCUGCCUGGAGUGUCGGAUCCUGUGAGUAGGCUGGGCCUCCCCUGGGCAGG,0.469
AAGGAGCUGCCUUAAAUGGCCCAGUGUGUGCUGCUGCCGCCCGGCCACGGCCCACCCUGGUCAGGCUGCCUCCUUAAUCGAGAAAACUACCUGGUGAUGCAAUCUUUUUU,0.343
CUGUCGUCAGGGAAGCCCGUGAUCGCUCGUUUUCAGGGGUCUUACCGGUCAGCAACCUUGGCAUUGAUACAUAGGCACUCUACAGAAUUUAAGUUUUCAGAGGUAAGUCU,1.82
CUGCCGAGCAAAGGGAACGUCCUCAGAUUUCCGUCCAUUUCAUUUCUUCAUUAGAGUAAACAGUGGGACUUGGGAGGAUUAGUCUGGUGUCUAUUCUGGGCUAGAGAGAU,0.274
UAAGAAAACUUGUGUGCUUUUCAAAAAGGCAGUGCUAAGCACAAGAUUUCAAGAAAGCCUCUUCUUGUUGCCUAGCUGAGUGGGAGAGUCAUUUUCCCCAGACACUACAU,0.323
CUCCUCCCUGCUCUCCUGUGCAGGAAUGUCUCUGAGCUGUUCACGUUGAUGCUUCUUGGUUGGCAAGACUUGGGUGUAGACAUGAAACCAUCUUACUAAAAGCGUCUUAA,0.875
GCCACCAUGCCCAGCUCAGAGGGUUGUUCUCCUAGACUGACCCUGAUCAGUCUAAGAUGGGUGGGGACGUCCUGCCACCUGGGGCAGUCACCUGCCCAGAUCCCAGAAGG,0.317

# Repeated from above (study 4):
Oligonucleotide,RBNS enrichment (R)
AAGGAGCUGCCUUAAAUGGCCCAGUGUGUGCUGCUGCCGCCCGGCCACGGCCCACCCUGGUCAGGCUGCCUCCUUAAUCGAGAAAACUACCUGGUGAUGCAAUCUUUUUU,0.343
CUGUCGUCAGGGAAGCCCGUGAUCGCUCGUUUUCAGGGGUCUUACCGGUCAGCAACCUUGGCAUUGAUACAUAGGCACUCUACAGAAUUUAAGUUUUCAGAGGUAAGUCU,1.82
CUGCCGAGCAAAGGGAACGUCCUCAGAUUUCCGUCCAUUUCAUUUCUUCAUUAGAGUAAACAGUGGGACUUGGGAGGAUUAGUCUGGUGUCUAUUCUGGGCUAGAGAGAU,0.274
UAAGAAAACUUGUGUGCUUUUCAAAAAGGCAGUGCUAAGCACAAGAUUUCAAGAAAGCCUCUUCUUGUUGCCUAGCUGAGUGGGAGAGUCAUUUUCCCCAGACACUACAU,0.323
CUCCUCCCUGCUCUCCUGUGCAGGAAUGUCUCUGAGCUGUUCACGUUGAUGCUUCUUGGUUGGCAAGACUUGGGUGUAGACAUGAAACCAUCUUACUAAAAGCGUCUUAA,0.875
GCCACCAUGCCCAGCUCAGAGGGUUGUUCUCCUAGACUGACCCUGAUCAGUCUAAGAUGGGUGGGGACGUCCUGCCACCUGGGGCAGUCACCUGCCCAGAUCCCAGAAGG,0.317
